# Measurements of several laboratories.
# Numbers after ± are the reported error.
# lecA: PA-I galactophilic lectin (lecA, Pseudomonas aeruginosa, UniProt Q05097)
# Sequence of UniProt Q05097 (whole entry, looked up): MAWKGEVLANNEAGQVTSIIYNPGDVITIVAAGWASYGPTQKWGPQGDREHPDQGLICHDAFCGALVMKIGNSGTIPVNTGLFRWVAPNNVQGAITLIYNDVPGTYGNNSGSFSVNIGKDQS
# Sequence of UniProt O35082 (whole entry, looked up): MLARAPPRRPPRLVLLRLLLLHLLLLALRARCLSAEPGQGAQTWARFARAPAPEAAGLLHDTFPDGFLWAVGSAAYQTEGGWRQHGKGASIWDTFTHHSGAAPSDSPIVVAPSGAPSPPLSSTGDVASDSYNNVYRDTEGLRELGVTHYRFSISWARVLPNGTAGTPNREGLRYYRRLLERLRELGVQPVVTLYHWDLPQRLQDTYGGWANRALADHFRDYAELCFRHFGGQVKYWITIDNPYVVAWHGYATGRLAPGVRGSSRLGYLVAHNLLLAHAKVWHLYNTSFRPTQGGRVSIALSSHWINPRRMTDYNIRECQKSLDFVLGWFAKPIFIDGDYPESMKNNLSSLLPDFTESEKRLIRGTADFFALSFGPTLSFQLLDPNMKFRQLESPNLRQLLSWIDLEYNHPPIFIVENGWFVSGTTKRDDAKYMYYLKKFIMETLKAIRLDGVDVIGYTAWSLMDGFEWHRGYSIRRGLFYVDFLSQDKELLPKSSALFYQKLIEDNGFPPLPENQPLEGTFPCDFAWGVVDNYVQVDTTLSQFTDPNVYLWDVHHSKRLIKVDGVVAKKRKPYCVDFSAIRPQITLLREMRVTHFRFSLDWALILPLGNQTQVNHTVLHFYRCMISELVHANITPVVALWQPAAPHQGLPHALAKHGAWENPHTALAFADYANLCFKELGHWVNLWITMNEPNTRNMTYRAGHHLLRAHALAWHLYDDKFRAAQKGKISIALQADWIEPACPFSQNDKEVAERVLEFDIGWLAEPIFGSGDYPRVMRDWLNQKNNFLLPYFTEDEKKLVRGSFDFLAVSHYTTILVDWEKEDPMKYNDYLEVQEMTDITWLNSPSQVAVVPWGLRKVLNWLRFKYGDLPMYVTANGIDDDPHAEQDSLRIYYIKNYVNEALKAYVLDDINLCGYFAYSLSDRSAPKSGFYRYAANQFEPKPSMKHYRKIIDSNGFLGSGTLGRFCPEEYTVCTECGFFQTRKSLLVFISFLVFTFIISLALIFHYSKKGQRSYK
# Sequence of UniProt P22455 (whole entry, looked up): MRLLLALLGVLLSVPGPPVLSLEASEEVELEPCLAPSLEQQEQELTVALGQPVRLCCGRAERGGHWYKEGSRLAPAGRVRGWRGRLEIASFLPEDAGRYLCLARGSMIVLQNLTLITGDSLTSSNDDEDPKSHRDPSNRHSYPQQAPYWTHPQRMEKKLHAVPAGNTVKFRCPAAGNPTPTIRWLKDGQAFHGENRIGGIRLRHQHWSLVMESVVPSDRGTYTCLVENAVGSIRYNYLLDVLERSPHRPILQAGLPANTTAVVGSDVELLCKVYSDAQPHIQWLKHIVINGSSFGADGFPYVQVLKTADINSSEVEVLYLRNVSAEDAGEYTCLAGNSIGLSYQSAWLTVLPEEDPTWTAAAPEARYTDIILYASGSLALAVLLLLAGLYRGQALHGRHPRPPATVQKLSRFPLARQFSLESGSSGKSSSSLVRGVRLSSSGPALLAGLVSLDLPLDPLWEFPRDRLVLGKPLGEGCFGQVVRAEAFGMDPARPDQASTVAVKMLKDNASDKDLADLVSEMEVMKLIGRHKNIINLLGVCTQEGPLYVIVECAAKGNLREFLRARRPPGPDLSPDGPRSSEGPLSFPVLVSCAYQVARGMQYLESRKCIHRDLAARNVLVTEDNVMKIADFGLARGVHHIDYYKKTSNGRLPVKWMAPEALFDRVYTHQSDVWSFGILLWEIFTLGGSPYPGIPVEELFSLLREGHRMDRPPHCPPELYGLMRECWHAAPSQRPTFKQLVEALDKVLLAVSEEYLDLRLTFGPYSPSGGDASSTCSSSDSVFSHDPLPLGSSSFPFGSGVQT
# Sequence of UniProt Q07741 (whole entry, looked up): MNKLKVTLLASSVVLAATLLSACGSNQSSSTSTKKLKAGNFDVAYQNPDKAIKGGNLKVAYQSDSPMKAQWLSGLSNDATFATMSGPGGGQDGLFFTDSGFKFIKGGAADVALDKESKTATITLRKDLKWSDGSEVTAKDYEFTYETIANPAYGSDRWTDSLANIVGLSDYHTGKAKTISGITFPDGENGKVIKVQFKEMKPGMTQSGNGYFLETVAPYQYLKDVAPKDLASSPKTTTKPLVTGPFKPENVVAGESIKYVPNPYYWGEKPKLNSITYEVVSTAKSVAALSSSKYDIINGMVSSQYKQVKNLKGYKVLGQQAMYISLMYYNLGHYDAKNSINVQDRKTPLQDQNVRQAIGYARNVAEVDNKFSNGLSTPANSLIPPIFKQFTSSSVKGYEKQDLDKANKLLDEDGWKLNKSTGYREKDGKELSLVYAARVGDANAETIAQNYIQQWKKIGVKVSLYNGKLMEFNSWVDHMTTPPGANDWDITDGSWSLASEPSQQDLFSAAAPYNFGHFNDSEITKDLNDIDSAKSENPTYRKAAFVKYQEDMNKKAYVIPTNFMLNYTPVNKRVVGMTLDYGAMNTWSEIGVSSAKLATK
# Sequence of UniProt O66465 (whole entry, unmodified, looked up): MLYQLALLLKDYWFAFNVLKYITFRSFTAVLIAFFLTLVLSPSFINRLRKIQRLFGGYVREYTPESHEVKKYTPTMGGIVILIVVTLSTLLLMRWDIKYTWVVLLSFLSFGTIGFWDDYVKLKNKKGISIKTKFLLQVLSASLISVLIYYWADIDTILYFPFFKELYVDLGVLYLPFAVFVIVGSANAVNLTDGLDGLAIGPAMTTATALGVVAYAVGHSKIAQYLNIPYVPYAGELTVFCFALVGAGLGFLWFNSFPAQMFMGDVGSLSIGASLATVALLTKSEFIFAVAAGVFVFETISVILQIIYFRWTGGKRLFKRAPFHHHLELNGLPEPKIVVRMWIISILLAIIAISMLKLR
# Sequence of UniProt Q767F1 (whole entry, unmodified, looked up): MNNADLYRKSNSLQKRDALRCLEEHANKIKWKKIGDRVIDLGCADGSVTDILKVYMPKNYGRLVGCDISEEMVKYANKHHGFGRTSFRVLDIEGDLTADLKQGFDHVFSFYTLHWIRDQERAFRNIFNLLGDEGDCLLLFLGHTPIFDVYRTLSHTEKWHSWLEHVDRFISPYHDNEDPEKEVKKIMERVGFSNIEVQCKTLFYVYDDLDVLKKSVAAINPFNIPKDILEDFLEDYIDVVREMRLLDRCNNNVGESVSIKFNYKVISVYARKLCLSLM
# Sequence of UniProt Q9NZC7 (whole entry, looked up): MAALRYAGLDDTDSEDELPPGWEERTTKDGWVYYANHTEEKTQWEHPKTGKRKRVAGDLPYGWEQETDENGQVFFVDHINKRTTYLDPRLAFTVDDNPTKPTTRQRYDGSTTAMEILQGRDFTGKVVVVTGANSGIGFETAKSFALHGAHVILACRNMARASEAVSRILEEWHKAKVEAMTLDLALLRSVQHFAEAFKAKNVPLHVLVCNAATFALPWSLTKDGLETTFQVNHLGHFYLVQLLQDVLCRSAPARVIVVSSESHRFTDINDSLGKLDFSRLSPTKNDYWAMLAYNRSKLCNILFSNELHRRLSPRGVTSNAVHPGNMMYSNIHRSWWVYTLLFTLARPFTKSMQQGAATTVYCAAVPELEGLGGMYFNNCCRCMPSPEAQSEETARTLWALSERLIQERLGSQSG
# Sequence of UniProt P69687 (whole entry, looked up): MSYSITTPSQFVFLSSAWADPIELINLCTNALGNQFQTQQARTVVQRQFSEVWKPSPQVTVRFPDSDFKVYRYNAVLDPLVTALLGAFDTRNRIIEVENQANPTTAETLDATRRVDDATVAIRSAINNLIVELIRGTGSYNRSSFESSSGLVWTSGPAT
# Sequence of UniProt O49687 (whole entry, looked up): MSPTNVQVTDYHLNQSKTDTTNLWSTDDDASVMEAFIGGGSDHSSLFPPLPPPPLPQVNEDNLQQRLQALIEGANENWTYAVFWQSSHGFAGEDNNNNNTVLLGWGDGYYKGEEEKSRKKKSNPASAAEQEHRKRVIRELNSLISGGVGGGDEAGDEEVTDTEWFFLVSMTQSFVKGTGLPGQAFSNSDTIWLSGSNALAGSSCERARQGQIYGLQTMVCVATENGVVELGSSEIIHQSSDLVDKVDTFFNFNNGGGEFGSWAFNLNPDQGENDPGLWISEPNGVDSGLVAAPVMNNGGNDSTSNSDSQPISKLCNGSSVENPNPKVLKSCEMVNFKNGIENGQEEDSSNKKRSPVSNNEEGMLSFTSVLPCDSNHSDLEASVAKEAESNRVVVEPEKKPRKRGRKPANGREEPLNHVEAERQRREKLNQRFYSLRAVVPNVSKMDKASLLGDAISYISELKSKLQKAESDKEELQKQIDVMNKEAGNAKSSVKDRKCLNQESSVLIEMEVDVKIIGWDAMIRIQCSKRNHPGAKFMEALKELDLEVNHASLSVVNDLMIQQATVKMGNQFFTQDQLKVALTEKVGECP
# Sequence of UniProt P26718 (whole entry, looked up): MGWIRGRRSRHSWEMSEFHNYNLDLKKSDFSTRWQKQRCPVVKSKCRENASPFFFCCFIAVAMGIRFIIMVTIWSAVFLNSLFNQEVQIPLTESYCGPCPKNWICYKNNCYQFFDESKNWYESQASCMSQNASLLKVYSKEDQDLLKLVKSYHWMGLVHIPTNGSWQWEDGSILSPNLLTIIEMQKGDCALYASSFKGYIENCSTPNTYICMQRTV
# Sequence of UniProt P45973 (whole entry, looked up): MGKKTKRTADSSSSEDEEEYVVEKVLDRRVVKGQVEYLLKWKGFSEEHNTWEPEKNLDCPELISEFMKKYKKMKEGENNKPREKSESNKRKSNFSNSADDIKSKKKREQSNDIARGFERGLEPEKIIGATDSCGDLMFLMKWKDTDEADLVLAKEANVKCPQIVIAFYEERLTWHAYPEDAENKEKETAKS
Compound,target,test,test system,conditions,Kd [nM]
N=C(N)NCCC[C@H](NC(=O)[C@H](Cc1ccccc1)NC(=O)[C@@H]1CCCN1C(=O)[C@H](CO)NC(=O)[C@H](Cc1ccccc1)NC(=O)CNC(=O)[C@@H]1CCCN1C(=O)[C@@H]1CCCN1C(=O)[C@@H](N)CCCNC(=N)N)C(=O)N[C@@H](CCCCNS(=O)(=O)c1ccc(C2=c3cc4c5c(c3Oc3c2cc2c6c3CCCN6CCC2)CCC[N+]=5CCC4)c(S(=O)(=O)[O-])c1)C(=O)O,"Oligopeptide-binding protein OppA (oppA, Lactococcus lactis subsp. lactis, UniProt Q07741)","binding, fluorescence anisotropy",,"pH 6.5, 45 °C, together with: dye-labelled peptide",30000 ± 10000
O=[N+]([O-])c1c(Br)c(Cl)c2cccnc2c1O,"Metallo-beta-lactamase type 2 (blaNDM-1, Klebsiella pneumoniae, UniProt C7C422)","binding, MST",,,320
C=CCOC(=O)NCCC[C@@H](NC(=O)[C@H](CCCNC(=N)N)NC(=O)[C@H](C)NC(=O)[C@H](CCCNC(=N)N)NC(=O)CNC(=O)[C@H](CCCNC(=N)N)NC(=O)[C@@H](NC(=O)[C@@H](NC(=O)CNC(=O)[C@H](CC(C)C)NC(=O)[C@@H]1CCCN1C(=O)[C@H](CC(=O)O)NC(=O)[C@H](CO)NC(=O)[C@H](C)NC(=O)c1cc(-c2ccccc2)nc2ccccc12)C(C)C)C(C)C)C(N)=O,"Klotho (Kl, Mus musculus, UniProt O35082)",BLI competition binding,,"30 min, 30 °C, together with: 100 nM mouse Klotho, immobilized Pep-10-Biotin",0.9 ± 0.3
CCCCCCCC(=O)N[C@@H](CCCCNS(=O)(=O)c1cccc2c(N(C)C)cccc12)C(=O)N[C@H](C(=O)N[C@@H](CCN)C(=O)N[C@H]1CCNC(=O)[C@H]([C@@H](C)O)NC(=O)[C@H](CCN)NC(=O)[C@H](CCN)NC(=O)[C@H](CC(C)C)NC(=O)[C@@H](Cc2ccccc2)NC(=O)[C@H](CCN)NC1=O)[C@@H](C)O,lipopolysaccharide,"binding, fluorescence titration",Escherichia coli,pH 7.0,500 ± 100
CC[C@H](C)[C@H](NC(=O)[C@H](Cc1c[nH]cn1)NC(=O)[C@H](CCCCNC(=O)[C@@H](NC(=O)[C@H](CCCCN)NC(=O)[C@H](Cc1ccccc1)NC(=O)[C@H](CCCCNC(=O)[C@H](CC(C)C)NC(=O)[C@@H]1CCCN1C(=O)[C@H](CCCCN)NC(=O)CCS[C@@H]1O[C@H](CO)[C@H](O)[C@H](O)[C@H]1O)NC(=O)[C@H](CC(C)C)NC(=O)[C@@H]1CCCN1C(=O)[C@H](CCCCN)NC(=O)CCS[C@@H]1O[C@H](CO)[C@H](O)[C@H](O)[C@H]1O)[C@@H](C)CC)NC(=O)[C@@H](NC(=O)[C@H](CCCCN)NC(=O)[C@H](Cc1ccccc1)NC(=O)[C@H](CCCCNC(=O)[C@H](CC(C)C)NC(=O)[C@@H]1CCCN1C(=O)[C@H](CCCCN)NC(=O)CCS[C@@H]1O[C@H](CO)[C@H](O)[C@H](O)[C@H]1O)NC(=O)[C@H](CC(C)C)NC(=O)[C@@H]1CCCN1C(=O)[C@H](CCCCN)NC(=O)CCS[C@@H]1O[C@H](CO)[C@H](O)[C@H](O)[C@H]1O)[C@@H](C)CC)C(N)=O,lecA,"binding, ITC",,pH 7.5,40
CCCCCCCCCCCCCC(=O)N[C@H](CCN)C(=O)N[C@@H]1C(=O)N[C@@H](CCN)C(=O)N[C@@H](CC(C)C)C(=O)N[C@@H](CCN)C(=O)N[C@H](Cc2ccccc2)C(=O)N[C@@H](CC(C)C)C(=O)N[C@@H](CCN)C(=O)N[C@H](CCN)C(=O)N[C@@H](C(C)C)C(=O)N[C@@H](CC(=O)O)C(=O)O[C@@H]1C,lipopolysaccharide,"binding, isothermal titration calorimetry",,"pH 7.4, 25 °C",2180 ± 820
CC(C)=CCC/C(C)=C/CC/C(C)=C/C(=O)O,"Juvenile hormone acid O-methyltransferase (JHAMT, Bombyx mori, UniProt Q767F1, H114A)","binding, fluorescence binding",,"pH 8.0, 25 °C",390 ± 60
CCN(CCCC[C@H](NC(=O)[C@H](Cc1c[nH]cn1)NC(=O)[C@H](C)NC(=O)[C@H](Cc1ccc(CN)cc1)NC(=O)c1cccnc1)C(=O)N[C@@H](CO)C(N)=O)C(C)C,"Chromobox protein homolog 5, chromodomain (Homo sapiens, UniProt P45973)",isothermal titration calorimetry,,25 °C,4950
CC(C)C[C@H](NC(=O)[C@@H](NC(=O)[C@@H](NC(=O)CNC(=O)CNC(=O)CNC(=O)CNC(=O)CNC(=O)[C@H](CC(N)=O)NC(=O)[C@H](CCCNC(=N)N)NC(=O)[C@H](Cc1c[nH]cn1)NC(=O)[C@H](CCCNC(=N)N)NC(=O)[C@H](Cc1ccc(O)cc1)NC(=O)[C@@H]1CCCN1C(=O)[C@@H]1CCCN1C(=O)[C@@H]1CCCN1C(=O)[C@@H]1CCCN1C(=O)[C@H](CC(C)C)NC(=O)[C@@H](NC(=O)[C@@H](NC(=O)CN)[C@@H](C)O)C(C)C)[C@@H](C)O)C(C)C)C(=O)N1CCC[C@H]1C(=O)N1CCC[C@H]1C(=O)N1CCC[C@H]1C(=O)N1CCC[C@H]1C(=O)N[C@@H](Cc1ccc(O)cc1)C(=O)N[C@@H](CCCNC(=N)N)C(=O)N[C@@H](Cc1c[nH]cn1)C(=O)N[C@@H](CCCNC(=N)N)C(=O)N[C@@H](CC(N)=O)C(=O)O,"WW domain-containing oxidoreductase, WW1-WW2 tandem domains (WWOX, Homo sapiens, UniProt Q9NZC7)",ITC,tandem WW1-WW2 domain,"pH 7.8, 20 °C, some values lower limits only",3100 ± 300
CN1C(=O)[C@H](Cc2ccccc2)N(C)C(=O)[C@@H]2[C@H]1CCN2Cc1cc(Cl)cc(Cl)c1,"NKG2-D type II integral membrane protein (KLRK1, Homo sapiens, UniProt P26718)","binding, surface plasmon resonance",,"25 °C, 1:1 binding model",48200
CSCC[C@H](NC(C)=O)C(=O)N[C@@H](CC(=O)O)C(=O)N[C@@H](CO)C(=O)N[C@@H](CCCCN)C(=O)N[C@@H](Cc1ccc(O)cc1)C(=O)N[C@H](C(=O)N[C@H](C(=O)N[C@@H](CC(C)C)C(=O)N[C@@H](Cc1ccc(O)cc1)C(=O)N[C@@H](Cc1ccc(O)cc1)C(=O)N[C@@H](CCC(N)=O)C(=O)N[C@@H](CC(C)C)C(=O)N[C@@H](Cc1c[nH]c2ccccc12)C(=O)N[C@@H](Cc1c[nH]c2ccccc12)C(=O)N[C@@H](CCCCN)C(=O)NCC(=O)N[C@@H](CO)C(=O)NCC(=O)N[C@@H](CO)C(=O)NCC(=O)N[C@@H](CO)C(=O)N[C@@H](CC(=O)O)C(=O)N[C@@H](Cc1ccc(O)cc1)C(=O)N[C@@H](CCCCN)C(=O)N[C@@H](CC(=O)O)C(=O)N[C@@H](CC(=O)O)C(=O)N[C@@H](CC(=O)O)C(=O)N[C@@H](CC(=O)O)C(=O)N[C@@H](CCCCN)C(=O)N[C@@H](CCCCN=[N+]=[N-])C(N)=O)[C@@H](C)O)C(C)C,"Fibroblast growth factor receptor 4 (FGFR4, Homo sapiens, UniProt P22455)","binding, BLI",,,56.1
CC[C@H](C)[C@@H]1NC(=O)[C@H](CCCNC(=N)N)NC(=O)[C@@H]2CCCN2C(=O)[C@H](C(C)C)NC(=O)[C@H](CO)NC(=O)[C@H]([C@@H](C)O)NC(=O)CNC(=O)[C@H](CC(=O)O)NC(=O)[C@@H](NC(=O)[C@@H](N)C(C)C)CSSC[C@@H](C(=O)N[C@H](C(=O)O)C(C)C)NC1=O,"Activin receptor type-2B, extracellular domain (ACVR2B, Homo sapiens, UniProt Q13705)","binding, surface plasmon resonance",,"22 °C, 1% DMSO",> 100000
CC(C)C[C@H](NC(=O)[C@H](CCCNC(=N)N)NC(=O)[C@H](CCC(=O)O)NC(=O)[C@H](CCCCN)NC(=O)[C@H](CCCNC(=N)N)NC(=O)[C@H](CCCCN)NC(=O)[C@]1(C)CCCC=CCCC[C@](C)(NC(=O)[C@H](CC(C)C)NC(=O)[C@H](CO)NC(=O)[C@H](C)NC(=O)[C@H](CCCCN)NC(=O)[C@H](CCCNC(=N)N)NC(=O)[C@H](C)NC(=O)[C@H](CCC(N)=O)NC(=O)[C@@H]2CCCN2C(=O)[C@@H](NC(=O)[C@H](CO)NC(=O)c2ccc3c(c2)C(=O)OC32c3ccc(N(C)C)cc3Oc3cc(N(C)C)ccc32)C(C)C)C(=O)N[C@@H](CCCNC(=N)N)C(=O)N[C@@H](Cc2ccccc2)C(=O)N[C@@H](CC(C)C)C(=O)N1)C(=O)O,"Transcription factor MYC4 (MYC4, Arabidopsis thaliana, UniProt O49687)","binding, fluorescence anisotropy",,"pH 8.0, MYC4 residues 55-253",1500 ± 200
Cc1ccc(/C=C/C(=O)c2ccc(OS(=O)(=O)c3cccs3)cc2)cc1,"CP, capsid (Tobacco mosaic virus, UniProt P69687)","binding, MST",,,56400
CC(C)CC(NC(=O)C(NC(=O)NC(C(=O)O)C(C)C)C1CCNC(=N)N1)C(=O)NCCCNC(C(=O)O)C(OC1OC(CN)C(O)C1O)C1OC(n2ccc(=O)[nH]c2=O)C(O)C1O (stereo not drawn),"Phospho-N-acetylmuramoyl-pentapeptide-transferase (mraY, Aquifex aeolicus, UniProt O66465, T75A)","binding, ITC",,,27.4
Cc1cc(S(=O)(=O)N(C)CC(=O)Nc2ccn(C)c(=O)c2)c2[nH]ncc2c1,"Dihydrolipoyl dehydrogenase, mitochondrial (DLD, Homo sapiens, UniProt P09622)","binding, ITC",,,592
CC[C@H](C)[C@H](NC(=O)[C@H](C)NC(=O)[C@H](Cc1c[nH]c2ccccc12)NC(=O)[C@H](CCC(=O)O)NC(=O)[C@H](CO)NC(=S)Nc1ccc2c(c1)C(=O)OC21c2ccc(O)cc2Oc2cc(O)ccc21)C(=O)N[C@H](C(=O)N[C@H](C(=O)N1CCC[C@H]1C(=O)N[C@@H](Cc1ccccc1)C(=O)N[C@@H](CC(C)C)C(=O)N[C@H](C(=O)N[C@@H](CC(N)=O)C(=O)N[C@@H](CC(C)C)C(=O)O)[C@@H](C)O)[C@@H](C)CC)C(C)C,"Rgg transcriptional regulator (Streptococcus pneumoniae, UniProt A0A0E7KI02)","binder, fluorescence polarization",,"20 min, pH 7.4, 20 °C, fluorescein-labelled peptide",9700 ± 600
CC(C)C[C@H](NC(=O)[C@@H]1CCCN1C(=O)[C@H](CCCCN)NC(=O)CCS[C@@H]1O[C@H](CO)[C@H](O)[C@H](O)[C@H]1O)C(N)=O,lecA,isothermal titration calorimetry,,"pH 7.5, 25 °C, together with: 25 mM CaCl2",51500 ± 6700
